Measured values pooled from the literature.
A part holds a random share of what one study measured.

Block 1
Molecule: PhoQ, residues 284 288 289 292 302 303 GNNTDL
Method: Sort-seq
Measured: YFP reporter
Medium: E. coli
Notes: PhoQ-PhoP variant library
Together with: 10 µM Mg2+
Reference: high Mg2+ state
Direction: higher = stronger signaling
PhoP, residues 12 14 15 18 19 VGHWL (Escherichia coli, UniProt P23836) — fold induction: 0.765.
For PhoP, residues 12 14 15 18 19 LHHYF (Escherichia coli, UniProt P23836): fold induction read 3.39.
It gave 2.3 for fold induction (PhoP, residues 12 14 15 18 19 NFFVT (Escherichia coli, UniProt P23836)).
PhoP, residues 12 14 15 18 19 TPWTL (Escherichia coli, UniProt P23836) — fold induction: 5.09.

Block 2
Target: Prothrombin, mature alpha-thrombin (F2, Homo sapiens, UniProt P00734)
Method: aptamer microarray, sandwich
Form: DNA with 2'F-ANA
Medium: in vitro
Concentration: 200 nM
Notes: whole 15-mer aptamer, many near background
Together with: Cy3 exosite-II aptamer, 400 nM
Direction: higher = stronger binding
Sequence: GGTTGGTGTGGTTGG
Under “mean fluorescence intensity”, `2'F-ANA at 1 2 7 10 12 15` is recorded as 74.4 a.u.
Under “mean fluorescence intensity”, `2'F-ANA at 2 5 8 10 12 13 15` is recorded as 48 a.u.
`2'F-ANA at 3 6 7 12 15`: “mean fluorescence intensity” 1330 a.u.
For `2'F-ANA at 2 3 5 6 8 9 10`, “mean fluorescence intensity” read 59.4 a.u.
`2'F-ANA at 1 3 4 5 6 8 11 13` — result for “mean fluorescence intensity”: 77 a.u.
Under “mean fluorescence intensity”, `2'F-ANA at 1 3 4 6 14 15` is recorded as 75.3 a.u.
Under “mean fluorescence intensity”, `2'F-ANA at 1 2 4 5 6 7 10 11 14` is recorded as 59.3 a.u.
Under “mean fluorescence intensity”, `2'F-ANA at 1 2 3 6 7 8 9 13 14 15` is recorded as 71 a.u.
`2'F-ANA at 2 3 5 6 7 8 10 12 15` — result for “mean fluorescence intensity”: 58.4 a.u.
Under “mean fluorescence intensity”, `2'F-ANA at 1 2 3 5 6 8 9 10 14 15` is recorded as 52.6 a.u.
For `2'F-ANA at 3 4 5 6 9 10 11 12 14 15`, “mean fluorescence intensity” read 51.8 a.u.
`2'F-ANA at 1 4` — result for “mean fluorescence intensity”: 137 a.u.
`2'F-ANA at 1 2 3 4 5 6 9 10 13 14 15` — result for “mean fluorescence intensity”: 54.1 a.u.
Under “mean fluorescence intensity”, `2'F-ANA at 2 5 6 9 10 11 14 15` is recorded as 49.4 a.u.
`2'F-ANA at 1 2 3 4 8 12`: “mean fluorescence intensity” 528 a.u.
`2'F-ANA at 1 2 3 4 12 13 15`: “mean fluorescence intensity” 302 a.u.
`2'F-ANA at 1 3 4 8 15`: “mean fluorescence intensity” 288 a.u.
`2'F-ANA at 2 4 8 11 12 14 15` — result for “mean fluorescence intensity”: 137 a.u.
For `2'F-ANA at 1 2 3 4 7 11 13 15`, “mean fluorescence intensity” read 126 a.u.
For `2'F-ANA at 2 3 5 8 11`, “mean fluorescence intensity” read 99.3 a.u.
Under “mean fluorescence intensity”, `2'F-ANA at 3 5 9 11 15` is recorded as 98.6 a.u.
`2'F-ANA at 1 2 5 7 11 12 14` — result for “mean fluorescence intensity”: 43.5 a.u.
`2'F-ANA at 1 2 3 4 10 12 14 15`: “mean fluorescence intensity” 52.1 a.u.

Block 3
Target: RNA binding protein fox-1 homolog 2, RRM domain, GST-SBP tag (RBFOX2, Homo sapiens, UniProt O43251-10, residues 100-194)
Method: RNA Bind-n-Seq
Form: RNA
Medium: in vitro
Concentration: 365 nM
Notes: natural RNA segment, single round, ends assumed
Reference: no-protein control
Direction: higher = stronger binding
Target sequence (chain): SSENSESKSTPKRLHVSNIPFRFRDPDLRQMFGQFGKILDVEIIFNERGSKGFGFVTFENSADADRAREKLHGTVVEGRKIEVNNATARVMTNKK
Under “RBNS enrichment (R)”, `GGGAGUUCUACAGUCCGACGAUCUGACCUUGUCUUUCUUUCUUUUCUUGAGACAUGGUCCUACUACCAACCCUGGCUGGACUGGAGCUCAGUGUAUAGACCAGGCUAGUCUCAAACUCUGCCUCUUCCUCCCAUGGAAUUCUCGGGUGCCAA` is recorded as 0.481.
Under “RBNS enrichment (R)”, `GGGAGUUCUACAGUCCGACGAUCGAGGGGGAGGGGCUCUUGCUUUAAGUCAGAAGUCUCAAAUGACAUGCUCAUCAAUUAAAGGAAAAAAAAAACCCCACCUCAACCUUCAUAACUGCCCAACAACUACCCCCUGGAAUUCUCGGGUGCCAA` is recorded as 0.423.
For `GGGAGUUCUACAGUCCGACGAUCCACAAACUCUGAAGCCAGUGUCUAGCUUACUAAAAAAAGAGUUGUAUAUAAUAUUUAAGAUGCUGAGUAUUUCAUAGGAAAGCUGAAUGCUGCUGUAAAGUGCUCUUUAAUGGAAUUCUCGGGUGCCAA`, “RBNS enrichment (R)” read 0.845.
`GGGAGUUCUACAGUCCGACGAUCAGUUCCCAUAAAACCUUCAUUACACAUAAAGAUACACGUGGGGGUCAGUGAAUCUGCUUGCCUUUCCUGAAAGUUUCUGGGGCUUAAGAUUCCAGACUCUGAUUCAUUAAUGGAAUUCUCGGGUGCCAA`: “RBNS enrichment (R)” 0.27.
`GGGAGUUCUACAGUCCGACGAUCGCAGAUCCUACAGUCAAUAGAUAAUGAUGAGACUUACAACAUUUCACAUCUCUCUUGAGAAUCCUUUAAGUGCUGUUUAGCCUCCCAACACAUAGAUGCAUAGGAUGGAGUGGAAUUCUCGGGUGCCAA`: “RBNS enrichment (R)” 0.442.
`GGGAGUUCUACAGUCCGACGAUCCAUCGAAACCCUGGUUUCAGGAUGGAUCAAGUGCUGUUACAGCUCAUGUUCCUUAGACCUGAUUUGUUUUGAUAUUUUACUGCCUUUCCUUUUAAUUUUUGUUUGAAUGAUGGAAUUCUCGGGUGCCAA` — result for “RBNS enrichment (R)”: 1.51.
`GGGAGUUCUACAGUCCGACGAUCUAUAAUUCUUUGGUGAAUAGGUAUGCCUAGGAACAACUGGUGGUUAGUCUGUGUCCUGUGUGGAACUGUAAGGAUGGAGCUGCCCCUGAUAGGCUCUGUGGAGUUGGCUUUGGAAUUCUCGGGUGCCAA`: “RBNS enrichment (R)” 0.826.
`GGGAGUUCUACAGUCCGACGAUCAUAACAGUAUUACCCUUUCACUGUUCUCACAGGACAUGUACCUAAUUAUGGUACUUAUUUAUGUAGUCACUGUAUUUCUGGAUUUUUAAAUUAAUAAAAAAGUUAAUUUUUGGAAUUCUCGGGUGCCAA`: “RBNS enrichment (R)” 0.66.
Under “RBNS enrichment (R)”, `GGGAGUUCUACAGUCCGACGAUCCAAACCAAUUGCCUCAGGCUAUCUGUGUAAGGUGUCUAUGUGAAACCUAAAUGAAUUUCAUGAUUAGAGGUGCUCCCACCUGCCAAAUAAUCCCGCCACAAAUAUGCAAAUGGAAUUCUCGGGUGCCAA` is recorded as 0.407.
Under “RBNS enrichment (R)”, `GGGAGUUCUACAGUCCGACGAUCUAGUUUACUAAACUAGAAGUCCUCAUAGUUUAAAAUGGCCUCAGCAGGCCUAGUGUAUACAAACUGGUUGUAUGUAUCAUGCCGUGGAGCUAGGGGGAGGAGUCAUUGUGUGGAAUUCUCGGGUGCCAA` is recorded as 0.388.
Under “RBNS enrichment (R)”, `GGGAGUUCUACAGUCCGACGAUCAUUAGUUGAGAAAGCUCUGUUUCAUUUAGAGUUUUAAAGGAAUAUUCUCUCUUCAAUUAAGGAAUUUUCAUAAUGGAAUGGUUUAAAUUGAAGUGAUAAAGAAUAUUAUUUGGAAUUCUCGGGUGCCAA` is recorded as 0.573.
For `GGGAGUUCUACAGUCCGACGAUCUUUCCCUAAACCAGCACCCAUCUGCCUUUUAUUCCCCAAAGAGUUACCUUUCCCAGAUUAGGGGGAUGGUAUGUGGGGAGCAGAUAGCGGAAAUGCUUAGAAAGAUAAGGUGGAAUUCUCGGGUGCCAA`, “RBNS enrichment (R)” read 0.287.

Block 4
Target: Sal-like protein 4, full length isoform A (SALL4, Homo sapiens, UniProt Q9UJQ4, residues 1-1053)
Sequence of UniProt Q9UJQ4 (whole entry, looked up): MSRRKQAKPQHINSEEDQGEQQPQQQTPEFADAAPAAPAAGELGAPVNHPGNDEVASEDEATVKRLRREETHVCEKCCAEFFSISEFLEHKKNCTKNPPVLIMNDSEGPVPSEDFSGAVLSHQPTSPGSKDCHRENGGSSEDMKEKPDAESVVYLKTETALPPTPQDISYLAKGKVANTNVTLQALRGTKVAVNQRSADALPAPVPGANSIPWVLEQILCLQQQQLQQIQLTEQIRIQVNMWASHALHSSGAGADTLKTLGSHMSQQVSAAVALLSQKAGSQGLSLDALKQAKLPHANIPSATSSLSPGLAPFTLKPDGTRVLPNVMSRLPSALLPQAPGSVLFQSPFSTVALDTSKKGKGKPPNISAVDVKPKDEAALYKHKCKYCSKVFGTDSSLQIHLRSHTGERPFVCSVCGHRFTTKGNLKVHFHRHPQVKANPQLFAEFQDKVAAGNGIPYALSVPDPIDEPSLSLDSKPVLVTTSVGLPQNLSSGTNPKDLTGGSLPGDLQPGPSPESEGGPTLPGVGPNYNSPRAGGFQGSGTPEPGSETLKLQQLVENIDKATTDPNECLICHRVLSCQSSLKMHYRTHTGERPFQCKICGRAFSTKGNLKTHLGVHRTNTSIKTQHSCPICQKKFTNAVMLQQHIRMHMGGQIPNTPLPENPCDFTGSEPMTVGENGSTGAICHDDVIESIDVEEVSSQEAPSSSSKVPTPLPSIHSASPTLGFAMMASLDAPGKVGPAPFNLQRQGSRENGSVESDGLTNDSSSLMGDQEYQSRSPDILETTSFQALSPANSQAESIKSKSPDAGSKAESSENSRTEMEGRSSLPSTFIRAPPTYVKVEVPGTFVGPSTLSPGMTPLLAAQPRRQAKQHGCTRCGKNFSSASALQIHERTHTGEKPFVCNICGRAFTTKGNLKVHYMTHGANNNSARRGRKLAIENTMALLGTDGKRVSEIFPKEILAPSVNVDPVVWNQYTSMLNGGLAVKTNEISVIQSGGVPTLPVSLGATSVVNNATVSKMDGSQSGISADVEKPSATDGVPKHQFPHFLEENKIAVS
Method: universal PBM
Form: double-stranded DNA, one strand shown
Medium: in vitro
Concentration: 600 nM
Notes: 8-mer, flanks averaged, mean of replicates
Direction: higher = stronger binding
With `GAGACCTC` the E-score was -0.196.
The E-score of `CGTATCTC` is reported as -0.0984.
The E-score of `CCGATTTA` is reported as 0.241.
`AGGTTCAC` gave an E-score of -0.165.
With `AGAGCGAC` the E-score was -0.171.
`CCTGGTAC` has an E-score of -0.177.
The E-score of `TGCCTACA` is reported as 0.058.
`GCGACAAA` has an E-score of 0.0137.
With `GGGGCACC` the E-score was -0.384.
For `CCCTAGAA`, the E-score was -0.0572.
For `ATACCTGG`, the E-score was -0.159.
For `CTCTGAGC`, the E-score was -0.219.
With `AACTACGA` the E-score was 0.154.
`TACAGCCA` has an E-score of -0.0826.
`CCATTGAG` gave an E-score of 0.138.
The E-score of `ACAGTGAA` is reported as 0.0996.
`ACGAATTG` gave an E-score of 0.0777.
With `CCAAGAAG` the E-score was -0.0517.

A few entries again (block 2):
Under “mean fluorescence intensity”, `2'F-ANA at 2 5 8 10 12 13 15` is recorded as 48 a.u.
`2'F-ANA at 3 6 7 12 15`: “mean fluorescence intensity” 1330 a.u.
For `2'F-ANA at 2 3 5 6 8 9 10`, “mean fluorescence intensity” read 59.4 a.u.
`2'F-ANA at 1 3 4 5 6 8 11 13` — result for “mean fluorescence intensity”: 77 a.u.
Under “mean fluorescence intensity”, `2'F-ANA at 1 3 4 6 14 15` is recorded as 75.3 a.u.
Under “mean fluorescence intensity”, `2'F-ANA at 1 2 4 5 6 7 10 11 14` is recorded as 59.3 a.u.
Under “mean fluorescence intensity”, `2'F-ANA at 1 2 3 6 7 8 9 13 14 15` is recorded as 71 a.u.
`2'F-ANA at 2 3 5 6 7 8 10 12 15` — result for “mean fluorescence intensity”: 58.4 a.u.
Under “mean fluorescence intensity”, `2'F-ANA at 1 2 3 5 6 8 9 10 14 15` is recorded as 52.6 a.u.
